Published values gathered from unrelated publications.
Protocols differ between the studies behind these lines. ± marks the error that the study gave.

Under “TBIL elevation incidence”, `COc1cc2c(Oc3ccc4[nH]c(C)cc4c3F)ccnc2cc1OCC1(N)CC1` is recorded as 9.1% (paediatric refractory sarcoma patients; 12 mg).
`CN1CC[C@@H](c2c(O)cc(O)c3c(=O)cc(-c4ccc(C(F)(F)F)cc4Cl)oc23)[C@@H]1CO` — result for “patients with adverse event”: 10% (measured: Epistaxis; relapsed or refractory haematological malignancies; oral, dose not given, all arms).
Under “serum enzyme activity”, `O=S(=O)(Nc1ccccc1)c1ccc(NC(=S)Nc2ccccc2)cc1` is recorded as 212 U/L (measured: ALKP; female mouse, blood; oral, 20 mg/kg daily, 14 days).
`C[C@]1(CO)Cc2ncn(-c3ccc(C#N)c(Cl)c3)c2C(=O)O1` has a Cmax of 432 nM (human; oral, 10 mg, fasted, adjusted geometric mean).
`CC[C@H](C)[C@H](N)C(=O)N[C@@H](CC(N)=O)C(=O)N[C@@H](CC(C)C)C(=O)N[C@@H](CCCCN)C(=O)N[C@@H](CCCCN)C(=O)N[C@@H](CC(C)C)C(=O)N[C@@H](C)C(=O)N[C@@H](CCCCN)C(=O)N[C@@H](CC(C)C)C(=O)NCCCC[C@H](NC(=O)[C@H](CC(C)C)NC(=O)[C@H](CCCCN)NC(=O)[C@H](C)NC(=O)[C@H](CC(C)C)NC(=O)[C@H](CCCCN)NC(=O)[C@H](CCCCN)NC(=O)[C@H](CC(C)C)NC(=O)[C@H](CC(N)=O)NC(=O)[C@@H](N)[C@@H](C)CC)C(=O)NCCCC[C@H](NC(=O)[C@H](CCCCNC(=O)[C@H](CC(C)C)NC(=O)[C@H](CCCCN)NC(=O)[C@H](C)NC(=O)[C@H](CC(C)C)NC(=O)[C@H](CCCCN)NC(=O)[C@H](CCCCN)NC(=O)[C@H](CC(C)C)NC(=O)[C@H](CC(N)=O)NC(=O)[C@@H](N)[C@@H](C)CC)NC(=O)[C@H](CC(C)C)NC(=O)[C@H](CCCCN)NC(=O)[C@H](C)NC(=O)[C@H](CC(C)C)NC(=O)[C@H](CCCCN)NC(=O)[C@H](CCCCN)NC(=O)[C@H](CC(C)C)NC(=O)[C@H](CC(N)=O)NC(=O)[C@@H](N)[C@@H](C)CC)C(=O)NCCC(=O)O` gave a hemolytic concentration of roughly 15 µM (human red blood cells; 2 h, 37 °C).
`O=C1Nc2cc3[nH]nc(-c4ccncc4)c3cc2CN1Cc1ccccc1`: “patients with TEAE” 32% (measured: subretinal fluid; patients with advanced solid tumours; intravenous, dose not given, both schedules pooled).
Under “incidence of grade 1 taste disorder”, `COc1ncnn2ccc(-c3cnc4nc(C)n(Cc5nnc([C@@H](C)F)o5)c4c3)c12` is recorded as 7.1% (human patients; oral, dose not given).
For `C[C@@H](c1ncncc1F)[C@](O)(Cn1cncn1)c1ccc(F)cc1F`, the deaths was 0% (human; oral, 400 mg, drug interaction trial).
With `O=c1nc(NO)ccn1[C@@H]1O[C@H](CO)[C@@H](O)[C@H]1O` the autosampler stability was 101 ± 3.11% (rat placenta dialysate; 25 ng/mL, 6 h, 10 °C, low QC concentration, together with: molnupiravir).
The accuracy of `O=c1ccc2cc3ccoc3cc2o1` is reported as 99.5% (three freeze-thaw cycles; rat plasma; 8 ng/mL, -70 °C freeze).
With `O=c1oc2c(O)c(O)cc3c(=O)oc4c(O)c(O)cc1c4c23` the liver weight was 1.38 g (BALB/c mice; 1000 mg/kg/day, 28 days, subacute toxicity study).
`C[C@@H]1OC(=O)NN=C1c1ccc(-c2ccc(F)cc2)c(C(F)(F)F)c1`: “patients with adverse event” 0% (phase I trial, measured: Pneumonitis worst grade 3; human patients; 5 mg once daily).
`COc1ccc(-c2c(-c3ccc(C#N)c(F)c3)nc(N3CCC(N)CC3)n(C)c2=O)cc1F`: “treatment-related adverse event incidence” 4% (measured: Constipation; human patients; oral, dose not given, any grade, dose escalation, NG).

For quick reference, copied from above:
`C[C@@H]1OC(=O)NN=C1c1ccc(-c2ccc(F)cc2)c(C(F)(F)F)c1`: “patients with adverse event” 0% (phase I trial, measured: Pneumonitis worst grade 3; human patients; 5 mg once daily).
The accuracy of `O=c1ccc2cc3ccoc3cc2o1` is reported as 99.5% (three freeze-thaw cycles; rat plasma; 8 ng/mL, -70 °C freeze).
